Measured values pooled from the literature.
Numbered parts are unrelated; each lists some results of a single study. Substitutions count along the parent as printed.

Sample 1 — technique: RNAcompete; molecule type: RNA; medium: in vitro; tested at: 20 nM; setting: 7-mer, probes averaged, single round; reference: mean of 7-mers; reading: higher = stronger binding
Target: PABPC1L2, full length, GST fusion (mouse, UniProt A0ABA7IW68)
Construct (chain): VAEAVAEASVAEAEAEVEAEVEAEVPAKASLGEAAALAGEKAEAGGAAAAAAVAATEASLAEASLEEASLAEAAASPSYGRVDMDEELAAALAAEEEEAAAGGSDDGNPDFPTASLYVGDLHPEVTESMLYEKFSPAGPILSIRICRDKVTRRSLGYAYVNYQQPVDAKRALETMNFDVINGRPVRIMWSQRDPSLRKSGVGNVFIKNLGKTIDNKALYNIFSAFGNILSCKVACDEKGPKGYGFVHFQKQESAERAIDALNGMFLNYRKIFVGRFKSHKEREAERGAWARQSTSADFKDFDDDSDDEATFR
Oligonucleotide	7-mer Z-score
GUCCCAG	-0.204
GGAUCUG	-0.0935
GAUAUCG	-0.226
AUUGAAC	-0.108
GACGCAG	0.0243
UUGACGA	-0.0863
CGGCUAU	-0.161
GGUCAAA	0.258
UAUCGGU	-0.0754
AUACGCU	-0.184
UCAUGAG	-0.135
CCGUCCA	-0.351
UUGAUCU	-0.34
AGACGAG	0.00979
CGUUAGC	-0.364
GCAAGCU	-0.264
AUUGGGG	0.365
UUAAUGC	-0.0754
GACUAGA	0.146
GAAGGGC	0.28
AGUGUAA	0.254
CGAGUAU	-0.05
AUACCAU	-0.079
UUAUUUC	-0.306
GGUGUGC	0.0605

Sample 2 — technique: universal PBM; molecule type: double-stranded DNA, one strand shown; medium: in vitro; tested at: not given; reading: higher = stronger binding
Target: Sal-like protein 4, full length isoform B (SALL4, Homo sapiens, UniProt Q9UJQ4-2, residues 1-616)
Setting: 8-mer, flanks averaged, mean of replicates
Target sequence (chain): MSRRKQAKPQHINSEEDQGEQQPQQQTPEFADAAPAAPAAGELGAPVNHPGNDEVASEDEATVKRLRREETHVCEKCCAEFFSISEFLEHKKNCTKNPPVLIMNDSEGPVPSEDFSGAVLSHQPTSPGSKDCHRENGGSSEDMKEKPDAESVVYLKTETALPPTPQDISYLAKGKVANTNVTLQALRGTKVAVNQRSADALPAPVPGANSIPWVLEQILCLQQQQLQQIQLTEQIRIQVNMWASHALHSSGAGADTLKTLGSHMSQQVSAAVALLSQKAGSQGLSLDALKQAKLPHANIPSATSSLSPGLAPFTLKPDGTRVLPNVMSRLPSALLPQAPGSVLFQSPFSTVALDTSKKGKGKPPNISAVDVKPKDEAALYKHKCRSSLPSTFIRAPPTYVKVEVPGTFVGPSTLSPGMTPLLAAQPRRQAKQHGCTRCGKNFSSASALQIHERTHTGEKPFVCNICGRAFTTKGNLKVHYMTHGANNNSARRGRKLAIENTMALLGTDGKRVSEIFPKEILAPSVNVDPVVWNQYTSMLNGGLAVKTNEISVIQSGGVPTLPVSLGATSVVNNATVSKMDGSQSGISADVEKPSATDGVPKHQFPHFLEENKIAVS
Oligonucleotide	E-score
AAGGAACA	-0.0775
ATGATTTG	0.146
CGTCAGTC	-0.182
CAACGCCG	-0.249
CAGCGAAG	-0.176
TGTACTAA	0.218
AATCTGCT	0.158
AGTCCCCA	-0.28
ATACCCTC	0.0169
AACATGCA	0.217
TGGCACAA	-0.0148
AGGGTCTG	-0.284
CCCGTAGG	-0.337
CGCCCTAG	-0.288
AGCTGCTC	-0.178
TAATCGTA	0.249
CAGCTGGC	-0.263
CCTTACAG	-0.0319

Sample 3 — technique: RNA Bind-n-Seq; molecule type: RNA; medium: in vitro; tested at: 365 nM; reference: no-protein control; reading: higher = stronger binding
Target: RNA binding protein fox-1 homolog 2, RRM domain, GST-SBP tag (RBFOX2, Homo sapiens, UniProt O43251-10, residues 100-194)
Setting: natural RNA segment, single round, ends assumed
Constant ends, left off below: GGGAGUUCUACAGUCCGACGAUC … UGGAAUUCUCGGGUGCCAA
Residues (chain): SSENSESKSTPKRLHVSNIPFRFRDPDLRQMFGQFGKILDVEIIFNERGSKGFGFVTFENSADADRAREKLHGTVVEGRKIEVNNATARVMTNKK
Oligonucleotide	RBNS enrichment (R)
CAAUACGUUUGUGCAGAAUCUCUAUGUAUAUUCUAUUUUAUUAAAUUAAUUGAAUCUAGUAUAUGCGGGAUGUACGACAUUUUGUGACUGAAGAGACUUGUUUCCUUCUA	0.331
GGCUACUGUUUGUCCUGUGGCAGCCGGCUACAGUCUCGUCUGAGUGGCCUCAUCUGGACCCUUCCUGUUAUUAAUAAAACGCUUCUGGAGGCCAGAUCUGUGCUCAAGCC	0.207
UUCCAGAAGAGAGCUAUUUAAACUGGUGGACAUGGGAUUGGAGUCUGGUGUUAGAUUGUUUUGAAUUCUGUUGUCCACAAGAACUCUGUUCUCGUGUUCUUUUGUUUCCG	0.414
CGAGUGAACCGUGGAGCAGGCAGGAGCAUCCUUUGUCUCACCAAUUCCAGGAUUUAGGCCUUAUCAUCCCGGCCAGUCUCAGAUGACCUAGCUGGCCCCAGGCUGGGGUC	0.306
UUUUUACUUCAGCUCAUCCAAAAGCAGCCAGCAGACCGGUUGACUGAGACCGGUCUGUGGCUGUGGGCCCCUUGGUGACCCGCUGCUCUUUUGGAAAUGGGUGACCUGAA	0.247
CCCAACUGGGCUUCCAGCCUUGUUGAAUGAAAUCAUCUAUCUCUGAUUGGGCGCAACGAACUGCAUUUCUUUGGACUUCUGAAUCCAUGUUUGUGCUUUCUCUGGCCCGU	0.251
CCUUCCUGGCCUCACAACCACCACAGUGAUUUCCUGUAGUGUCUUACACUUCCAUGUCACCACAGCGUGGAGCAUUAGAGAAAAGCCUGGAUAGACUUUUAGUUGAUAGA	0.267
CCCGUCAUGCUGUCCGUACACUACGUAUGCUGUAGAGCCAUUUUGUAUGUUGUGUAAAACAAAAAGCAUUGAUGAAAAAGCAAAAGGUGAUGUAUGUAUAUGAGAAAAUU	1.85
GGAGACUCAGCCUGGCUAUUCUUGAGCAUGGACAGUUGUUUCUCAAGGUGUCUUCUGACUCUCCUUCUGCCUCCCCACUAUACACUGUGGUUUGAAAAAUAUUUGCACUA	1.22
AUUGCAAAUGUAGUGUAUCACUGAGUCAUUUGCAGUGUUUUCUGCCACAGACCUUUGGGCUGCCUUAUAUUGUGUGUGUGUGUGGGUGUGUGUGUGUUUUGACACAAAAA	1.07
CUCAAAUACAUUGCCUCGGCAUGAACAUUAUUGUUAAUAUAAAUUGCACAUGGUCAUCGAGUGAAUUAUAAAAUUUUGAAAAGAUGCAGCUGCCCAAUAUUAACAGUUUU	0.569
ACCCCCCCCACUCUGCAGAGGGAAGCGGGGACAAUGCCGGGGUUUCAGGCAGGAGACACGAGGAGGGCCUGCCCGGAAGUCACAUCGGCAGCAGCUGUCUAAAGGGCUUG	0.59

Sample 4 — target: CCND3, cyclin fold, Cln2 fusion (human); technique: yeast growth competition, sequencing; medium: yeast; setting: weak parent motif; reference: not given; reading: higher = stronger binding
Starting sequence: REPIN1 docking peptide (human); QSFRGWVALVLHL
Variant	normalised enrichment score
QSFRGAVALVLHL [W6A]	-0.356
QSFRAWVALVLHL [G5A]	0.117
ASFRGWVALVLHL [Q1A]	-0.388
QSFRGWAALVLHL [V7A]	0.515
QAFRGWVALVLHL [S2A]	-0.0325
QSFRGWVALVAHL [L11A]	0.0939

Sample 5 — technique: protein binding microarray; molecule type: double-stranded DNA, one strand shown; medium: in vitro; tested at: not given; reference: not given; reading: higher = stronger binding
Target: Histone acetyltransferase KAT6A, winged helix 1, GST fusion (KAT6A, Homo sapiens, UniProt Q92794, residues 1-85)
Setting: 8-mer, flanks averaged, mean of 2 arrays, mostly near background
Construct (chain): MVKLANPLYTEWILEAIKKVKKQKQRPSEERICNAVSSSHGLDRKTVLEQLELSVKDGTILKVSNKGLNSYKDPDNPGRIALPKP
Oligonucleotide	E-score
AGAAAAGA	-0.12
AGAGGTGC	0.0274
GATGCCCA	-0.145
AGCGACCC	0.197
GCGAACGA	-0.0419
GAGGATAA	-0.264
CGTTAAAG	0.044
GGCGATGA	0.216
CGAGGGAG	0.0289
CTCGATCC	-0.175
CGTTCTGA	-0.0692
GCGAACGC	0.321
ATGCCGTG	0.287
GTAATGCA	-0.132
CCGGCACA	0.23
ACTGCCCC	-0.0125

Sample 6 — technique: protein-binding microarray; molecule type: double-stranded DNA, one strand shown; medium: in vitro; tested at: 940 nM top; setting: 60-bp whole probe; together with: salmon DNA 0.4 mg/ml; reference: random background probes; reading: higher = stronger binding; constant ends, left off below: GCCTAGCAC … GTCTTGATTCGCTTGACGCTGCTG
Target: Interferon regulatory factor 5, full length, phosphomimetic (IRF5, Homo sapiens, UniProt Q13568-2, residues 1-514, S451D/S453D/S456D/S462D)
Oligonucleotide	fitted relative affinity [z-score]
ATAGGTTTCGGTATCGGTTAGTGCTAG	14.9
TCATATACCACTCTTGCACTGTGCTAG	0.654
TACTGCTGGAGCTCAAGAGCGTGCTAG	-0.751
GAGGGTCTCGGACTGGGGACGTGCTAG	0.078
TTTCTTTTCTTTTCTTTTTTGTGCTAG	3.81
TCAGGTAGCCTTATCCCACTGTGCTAG	-0.21
TCACCTTTCCAAATACCACTGTGCTAG	1.52
GACGGTTTCCTACTGCTGAGGTGCTAG	0.316
GACGGACTGCTACTGCCGACGTGCTAG	-0.867
GACGGTTTCGAACTGGGGACGTGCTAG	4.75
TTAGGTATCCTACTGCCTTAGTGCTAG	-0.0608
GACGATCTCACTATCGAGACGTGCTAG	0.943
TTACATTTCAGTATCGATTAGTGCTAG	6.65
TTAAATATCAGTCTCGATTAGTGCTAG	3.39
TTTTTTCTACTTCTGTTTTTGTGCTAG	1.92
TCACTTCTTTTTTTTCTACTGTGCTAG	1.53
TTAGTTATCGGACTGGGTTAGTGCTAG	-0.00438
GACGATCTCGGGACTGGAGACGTGCTA	-0.312

Excerpt of the above (sample 5):
Oligonucleotide	E-score
CGTTAAAG	0.044
GGCGATGA	0.216
CGAGGGAG	0.0289
CTCGATCC	-0.175
CGTTCTGA	-0.0692
GCGAACGC	0.321
ATGCCGTG	0.287
GTAATGCA	-0.132
CCGGCACA	0.23
ACTGCCCC	-0.0125
